Measurements from different studies.
Parts stem from different laboratories: compare values within a part only.

Study 1
Target: Interferon regulatory factor 5, full length, phosphomimetic (IRF5, Homo sapiens, UniProt Q13568-2, residues 1-514, K96S/S451D/S453D/S456D/S462D)
Method: protein-binding microarray
Form: double-stranded DNA, one strand shown
Medium: in vitro
Tested at: 250 nM
Notes: 60-bp whole probe
With: salmon DNA 0.4 mg/ml
Relative to: random background probes
Reading: higher = stronger binding
Shared flanks, not repeated: GCCTAGCAC … GTCTTGATTCGCTTGACGCTGCTG
Sequence	log fluorescence [z-score]
TTAAGTCTCCTTTTCCTTTAGTGCTAG	0.849
CTCTACATGTGTTTAAAAAGGTGCTAG	-0.00756
CACGGACTGGACACTGGGGACGTGCTA	-0.609
CATCCAGCAGAGAGCCTCAGGTGCTAG	-0.55
TTAGAACTGAGTCTGGATTAGTGCTAG	-0.344
TTCGGTCTCCTTTTCCTTTAGTGCTAG	1.43
TCATATTTAAGGCCTATGACTGTGCTA	-0.122

Study 2
Target: Centromere-binding protein 1, full length, N-terminal tag (CBF1, Saccharomyces cerevisiae, UniProt P17106, residues 1-351)
Sequence of UniProt P17106 (whole entry, looked up): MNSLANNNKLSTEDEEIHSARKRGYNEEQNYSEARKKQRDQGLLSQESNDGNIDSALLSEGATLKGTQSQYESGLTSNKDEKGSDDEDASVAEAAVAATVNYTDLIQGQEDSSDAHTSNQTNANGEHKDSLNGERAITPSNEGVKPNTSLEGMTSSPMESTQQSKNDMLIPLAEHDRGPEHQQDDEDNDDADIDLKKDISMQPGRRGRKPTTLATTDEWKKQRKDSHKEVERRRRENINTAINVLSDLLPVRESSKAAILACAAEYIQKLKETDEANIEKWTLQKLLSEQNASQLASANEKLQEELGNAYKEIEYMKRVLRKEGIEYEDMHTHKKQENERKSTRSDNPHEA
Method: protein-binding microarray
Form: double-stranded DNA, one strand shown
Medium: in vitro
Tested at: 0.8 µM
Notes: whole 60-bp probe, no competitor
Reading: higher = stronger binding
Shared flanks, not repeated: … GTCTTGATTCGCTTGACGCTGCTG
Sequence	fluorescence intensity
GAATAGTAGACTTTTCACGTCATTGTTAGAAGTTAG	520 a.u.
CTATTTTGATATCCACACGTTATTGAGCTCATTTTC	566 a.u.
GAATCAGACTAACATGATGTTAGCAACGAGAGTTAG	482 a.u.
GAACTAAGATATTCCCACATGGACAAGTGCCACTAG	554 a.u.
GAAACAAATTAAAGCCACGTTCATATTCTTAATTAG	559 a.u.
CTAGTTCACATTGATGAGCACGTGAAAATCTTATTC	6860 a.u.
GAAGTGTCACGTGATCAGATGGTCTTTTTTTCATAG	42900 a.u.
CTATTTTGTTGTTATATTCACGTGCCTGTTTGCTTC	8160 a.u.

Study 3
Target: Prothrombin, mature alpha-thrombin (F2, Homo sapiens, UniProt P00734)
Method: aptamer microarray, sandwich
Form: DNA with 2'F-ANA
Medium: in vitro
Tested at: 200 nM
Notes: whole 15-mer aptamer, many near background
With: Cy3 exosite-II aptamer, 400 nM
Reading: higher = stronger binding
Sequence: GGTTGGTGTGGTTGG
Modification	mean fluorescence intensity
2'F-ANA at 2 3 4 7 10 11 14 15	186 a.u.
2'F-ANA at 2 3 9 10 14 15	291 a.u.
2'F-ANA at 2 4 5 7 8 9 11 13	63.4 a.u.
2'F-ANA at 1 2 4 6 7 9 10 12 13 15	57.2 a.u.
2'F-ANA at 1 3 7 8 12	708 a.u.
2'F-ANA at 1 3 5 6 7 9 12 13 15	114 a.u.
2'F-ANA at 2 3 6 7 8 9 10 14	298 a.u.

Other studies, line by line
Substance	target	test	test system	setting	scale	endpoint	result
PhoQ, residues 284 288 289 292 302 303 SSTLLI	PhoP, residues 12 14 15 18 19 AWHSL (Escherichia coli, UniProt P23836)	Sort-seq, item: YFP reporter	E. coli	PhoQ-PhoP variant library, with: 10 µM Mg2+	relative to: high Mg2+ state, higher = stronger signaling	fold induction	4.64

Repeated from above (study 1):
Sequence	log fluorescence [z-score]
TCATATTTAAGGCCTATGACTGTGCTA	-0.122
